# Assay results pooled from the literature.
# A part holds a random share of what one study measured. Changes are numbered by the printed parent chain.

# Set 1 — technique: universal PBM; form: double-stranded DNA, one strand shown; matrix: in vitro; concentration: 600 nM; reading: higher = stronger binding
# Target: Sal-like protein 4, full length isoform A (SALL4, Homo sapiens, UniProt Q9UJQ4, residues 1-1053)
# Sequence of UniProt Q9UJQ4 (whole entry, looked up): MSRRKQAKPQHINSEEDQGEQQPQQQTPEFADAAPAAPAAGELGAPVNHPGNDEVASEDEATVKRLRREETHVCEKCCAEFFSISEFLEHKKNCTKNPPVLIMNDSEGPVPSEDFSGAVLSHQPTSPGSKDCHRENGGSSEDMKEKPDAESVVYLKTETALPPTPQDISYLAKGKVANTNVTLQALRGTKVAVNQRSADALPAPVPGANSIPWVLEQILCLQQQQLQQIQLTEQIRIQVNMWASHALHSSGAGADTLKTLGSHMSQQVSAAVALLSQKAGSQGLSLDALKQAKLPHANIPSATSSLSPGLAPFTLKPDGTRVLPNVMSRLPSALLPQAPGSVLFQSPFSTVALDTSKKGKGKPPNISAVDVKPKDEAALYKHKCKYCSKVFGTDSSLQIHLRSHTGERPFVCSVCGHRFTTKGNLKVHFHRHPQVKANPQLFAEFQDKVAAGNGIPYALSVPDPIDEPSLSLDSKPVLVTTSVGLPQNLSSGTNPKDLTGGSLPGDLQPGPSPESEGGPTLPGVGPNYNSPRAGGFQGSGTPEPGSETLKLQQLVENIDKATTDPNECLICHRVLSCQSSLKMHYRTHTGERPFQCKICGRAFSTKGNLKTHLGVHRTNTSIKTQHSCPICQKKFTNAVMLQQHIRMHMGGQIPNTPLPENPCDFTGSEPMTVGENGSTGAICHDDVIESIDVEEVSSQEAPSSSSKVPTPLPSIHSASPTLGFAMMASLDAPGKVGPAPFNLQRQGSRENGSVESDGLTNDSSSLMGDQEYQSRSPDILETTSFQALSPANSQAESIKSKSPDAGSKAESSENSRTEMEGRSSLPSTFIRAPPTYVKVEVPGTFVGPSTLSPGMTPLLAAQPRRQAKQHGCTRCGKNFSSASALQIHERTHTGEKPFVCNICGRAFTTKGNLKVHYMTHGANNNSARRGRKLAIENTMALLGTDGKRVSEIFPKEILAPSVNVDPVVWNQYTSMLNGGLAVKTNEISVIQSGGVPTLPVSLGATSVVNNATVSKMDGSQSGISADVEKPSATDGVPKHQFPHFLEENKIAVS
# Notes: 8-mer, flanks averaged, mean of replicates
Strand,E-score
AAAACCAG,0.0685
CAAATATC,0.276
AGTCCCAT,0.0237
ACTTCCAC,-0.181
TGCCTAAA,-0.015
CCTGTCCA,-0.192
CATACCTC,0.145
GAGAATAC,0.127
ATCAGAAG,0.0771
CTTCAGAA,0.0527
ACTCGTAT,0.096
CCCCCTCA,-0.311
ACTACTAC,0.103
CAGAATGG,-0.0225
CGCAGGTA,-0.0842
CCAGGGGG,-0.351
CAGAGGAC,-0.0517
AAATCGTA,0.29
AGTCCGGA,-0.0712
GACTCTGA,0.0194
CTAAATAA,0.311
CATGGGCA,-0.242
AACGGCCA,-0.0441
AGGTGGTC,-0.149
AAATGGCT,0.0199

# Set 2 — technique: RNA Bind-n-Seq; form: RNA; matrix: in vitro; concentration: 200 nM; notes: whole 134-nt RNA, ends assumed; added: 150 mM KCl; reference: input library; reading: higher = stronger binding
# Target: Ras GTPase-activating protein-binding protein 1, full length (G3BP1, Homo sapiens, UniProt Q13283)
# Sequence of UniProt Q13283 (whole entry, looked up): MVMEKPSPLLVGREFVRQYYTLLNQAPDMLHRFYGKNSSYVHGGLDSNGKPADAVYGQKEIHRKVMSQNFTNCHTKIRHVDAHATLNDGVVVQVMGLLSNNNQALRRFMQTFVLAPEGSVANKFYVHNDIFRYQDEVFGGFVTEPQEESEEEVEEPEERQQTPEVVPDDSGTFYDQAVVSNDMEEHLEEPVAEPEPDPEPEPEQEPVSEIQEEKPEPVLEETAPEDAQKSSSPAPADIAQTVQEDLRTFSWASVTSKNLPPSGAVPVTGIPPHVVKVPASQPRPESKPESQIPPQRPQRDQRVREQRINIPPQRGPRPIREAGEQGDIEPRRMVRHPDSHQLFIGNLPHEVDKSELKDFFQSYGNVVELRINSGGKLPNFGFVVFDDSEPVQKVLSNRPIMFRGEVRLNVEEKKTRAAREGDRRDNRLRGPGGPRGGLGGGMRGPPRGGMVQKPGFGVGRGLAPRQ
# Constant ends, left off below: GGGAGUUCUACAGUCCGACGAUC … UGGAAUUCUCGGGUGUCAAGG
Strand,log2 enrichment
UCCUGUGCUACACAUCGUAUGUACCGAAUCGGGGAAAAAGGGGAGGGGAAAAAAAGGGGAAAGUAUUAUGUUACGCCGUUCGGAUCUGCA,0.443
AGUCCUGUGCUACACAUCGUAUGUACCGAAUCGGGCCCCGGGCCCCGGGGCCCCGGGGAAAGUAUUAUGUUACGCCGUUCGGAUCUGCAC,-2.51
ACCAUGCAGGUGGGCAUCUUUGGAAAGUGGGGCAAGGGGGGGAUAGGGAGGGGGGUAACACUUUGGGAACAGGUGGUCCCAGGUCGUUUC,0.877
GCAGGAAGUAAAAACAAAUGGGAAUGCUUCGGAUAGUGGCAGGGGUGGGGGUUGCUAAGGAAAGGGUGGGAUGGGAGUGGGUAAAGAGUU,0.778
CACAGACAACACGCACCCACACAGACACAGAGGGAAGGGGUUGGGAUGGGGACAGGGUGCACAGAAGGGCGGGGUAGGACCCCAGCCCCU,1.83
AAGUCCUGUGCUACACAUCGUAUGUACCGAAUCAAACCCCCAAAUUUAAAUUUAAAAAAGUAUUAUGUUACGCCGUUCGGAUCUGCACUU,-0.0286
ACCAUGCAGGUGGGCAUCUUUGGGAAGUGGGGCAAGGGGGGGAUAAAGAGGGGGGUAACACUUUGGGAACAGGUGGUCCCAGGUCGUUUC,0.787
GCAGGAAGUAAAAACAAAUGGAAAUGCUUCGGAUAGUGGCAGGCGUGGGGGUUGCUAAGGAAAGGGUGGGAUGGGAGUGGGUAAAGAGUU,0.941
AAGUCCUGUGCUACACAUCGUAUGUACCGAAUCGGGGCCCCGGCCCCGGCCCCGGGGAAAGUAUUAUGUUACGCCGUUCGGAUCUGCACU,-1.03
UCCUGUGCUACACAUCGUAUGUACCGAAUCGGGGUUUUUUUGGGGAAAGGGGUUUGGGGAAAGUAUUAUGUUACGCCGUUCGGAUCUGCA,0.563
UCCUGUGCUACACAUCGUAUGUACCGAAUCGGGAAAAAGGGAAAAAGGGGAAAAAGGGGAAAGUAUUAUGUUACGCCGUUCGGAUCUGCA,0.143
ACCAUGCAGGUGGGCAUCUUUGGGAAGUGGGGCAAGGAAAGGAUAGGGAGGGGGGUAACACUUUGGGAACAGGUGGUCCCAGGUCGUUUC,1.01
CAAGUCCUGUGCUACACAUCGUAUGUACCGAAUCGGUUUGGAAAAAGGAAAAAGGAAAGUAUUAUGUUACGCCGUUCGGAUCUGCACUUC,-0.815
UCCUCAAGUCCUGUGCUACACAUCGUAUGUACCGAAUCGGUGGUGGGUGGGGAAAGUAUUAUGUUACGCCGUUCGGAUCUGCACUUCCAG,0.538

# Set 3 — technique: protein binding microarray; form: double-stranded DNA, one strand shown; matrix: in vitro; concentration: not given; reference: not given; reading: higher = stronger binding
# Target: Histone acetyltransferase KAT6A, both winged helices, GST fusion (KAT6A, Homo sapiens, UniProt Q92794, residues 1-181)
# Notes: 8-mer, flanks averaged, mean of 2 arrays, mostly near background
# Residues (chain): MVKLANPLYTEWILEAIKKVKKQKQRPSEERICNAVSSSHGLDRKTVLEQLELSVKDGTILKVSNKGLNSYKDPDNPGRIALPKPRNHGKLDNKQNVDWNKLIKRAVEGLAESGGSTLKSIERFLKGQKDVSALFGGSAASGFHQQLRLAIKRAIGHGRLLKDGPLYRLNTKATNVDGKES
Strand,E-score
AGCGTGCG,0.282
CGCTCCCA,0.118
TCAAGAAA,-0.197
CTTTCTCC,-0.0916
CAAGCGTC,0.145
CCAGAAGC,-0.11
AGCTAAGA,-0.127
ATAAGCAC,0.0709
CCGAACCC,-0.0342
ACATCGTA,0.0707
TATAATGA,-0.0215
CTAAGCGC,0.295
ATGTGCTA,0.121
GCTACACC,0.0177
AGGGTTCA,-0.0684
AATGATTC,-0.106
ACAAAGTC,-0.182
CAGCTTCG,-0.119
GCCAAAGC,0.0882
AGCTCTAA,-0.119
CATCCAAA,-0.213
ACTACCCT,-0.226
GCAGGAAC,-0.034

# Set 4 — target: CCNB1, cyclin fold, Cln2 fusion (human); technique: yeast growth competition, sequencing; matrix: yeast; notes: weak parent motif; reference: not given; reading: higher = stronger binding
# Starting sequence: SAMHD1 docking peptide (human); ASKSRVQLFKDDP
Variant,normalised enrichment score
D12T,-0.0331
F9V,0.703
K3C,0.347
F9P,0.352
L8W,0.163
S2T,0.412
Q7H,0.329
D12Y,0.307
D11Y,0.288
S4Y,0.408
K3T,0.0246
K3N,0.536
R5S,-0.246
F9T,-0.0868
R5G,0.0303
Q7R,0.792
D11A,0.0508
R5N,-0.239
R5H,0.12
V6Q,-0.345
K3P,0.0885
S2A,0.486
D12H,0.0134
F9L,0.341
V6W,-0.387

# Set 5 — technique: RNA Bind-n-Seq; form: RNA; matrix: in vitro; concentration: 365 nM; reference: no-protein control; reading: higher = stronger binding
# Target: RNA binding protein fox-1 homolog 2, RRM domain, GST-SBP tag (RBFOX2, Homo sapiens, UniProt O43251-10, residues 100-194)
# Notes: natural RNA segment, single round, ends assumed
# Constant ends, left off below: GGGAGUUCUACAGUCCGACGAUC … UGGAAUUCUCGGGUGCCAA
# Residues (chain): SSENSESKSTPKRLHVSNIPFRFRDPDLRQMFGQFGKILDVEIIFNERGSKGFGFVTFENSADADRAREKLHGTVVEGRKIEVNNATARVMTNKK
Strand,RBNS enrichment (R)
CCCACAGGACUUACCCCUGUAUGUACAGGAUUUUUGUAUGAAAGUUUUGUUUGAUUCUGAGACUCUCUUGGGAACGCUGGAGAGCUUGUGCACAGCCUCUGGAAGGAAAG,0.837
AGCCUUGUAGCAGGCUUUGGUGACUGUGUUUAUGGAUAGGUCAAGUUUACUGCAAGACAGCUGCGCUGUCAAGACUGAGCUGGCUUCAGGCUGUGUCCGAGCUGUGUCAC,0.657
UUUCCAGCUGCAGGUUUGUUAGAGUCUGUUCUACAUGGGCCUGCCCUCCUGUGAUGGGCAGAGGCUCCUGGUACAUCGAGAAGAUUCCUGUGGAUCCCGUCAGGAGGGAC,0.436
UGGAGCUGUUUAUGGCAAUUUAAUACCAUUCUCUUUGUAAAGUGAAUAAAUACUCAUCUUUACCCAGCGCGUGUCUCGUGGUGUAUAUAGAGUGCACAGGUGUGUGUUUG,0.372
UCUGGAAGGAUGCUCGAGAGAACAAAUGGAGGUGGUGAAAAUCAAGCUUUGGAUUGUGCAUUCCUAGGCACAAAAUUACCUCAUUCUUCCUAACAAGCAAUCUGGGACCU,0.279
AUAAAAACUGACCUUCUUUAAUCAUAUACUUGUCUUUUGUAAAUAGCAGCUUUUGUGUCAUUCUCCCCACUUUAUUAGUUAAUUUAAAUUGGAAAAAACCCUCAAACUAA,0.813
GCAGAAGGAAGGCGGAGGGUGGAGGCCUUGCCUUUCCAUAUUCACCUAGGUCUUGUCUUUCAACUUGUUGGUAGAAGUUACAAAUUAUUCUCAAAACUGUCUGUCUCAUC,0.531
GGAGGGGGCUGUGUUGUGAGCCCUCCCGGUUCUCACCUCGCCUGGCACUUAACCACACCCUGGUUUUGUGUAGCCGCCAGCUCUCUUCUGGUUGGGCCUUUGAAAGGCUC,0.353
ACAGCAGAUUCUUGCAGUAUCAAGUAUACGCCUGUGGCAGAAUAAGUAUCUGUAAAUACAUGUUUAAAGAUGGAUUUUGUUUAAAAAAUCUAAAGGAACAAGUGUGUCGU,0.435
GCCCUGCCAUCCCUUCUGUCUGCCAUGAGAGGGACUCUCUGAGUGUCGCCUGGCCCCACGUGUGGUGUUUUGUGUGUUCCUGCCUGGCCAAGGGAGGUGCCAAUGCUGGG,2.63
UGUCACUUUUUUAAGGCUUUCUGUCCAGACUUCAACACUGGUUUCUUUUCAGAGUUUCGAAGGAUUAAUGACUUCCUCAGCGCCCUUGCUGGCGGGCUGAGGGUGACAGU,0.365
GAAAUUUACAUAUCAAUGUUUCUACAGUAUUGUUUGCUAAUUUUUAAAUAAAGUCAUGAUCAGUGUGCAUUUGUGAUUAUAUGUGUACUCAUUCUCUUACCUAGCGAACA,0.407

# A few entries again (set 2):
Strand,log2 enrichment
ACCAUGCAGGUGGGCAUCUUUGGGAAGUGGGGCAAGGAAAGGAUAGGGAGGGGGGUAACACUUUGGGAACAGGUGGUCCCAGGUCGUUUC,1.01
AAGUCCUGUGCUACACAUCGUAUGUACCGAAUCGGGGCCCCGGCCCCGGCCCCGGGGAAAGUAUUAUGUUACGCCGUUCGGAUCUGCACU,-1.03
ACCAUGCAGGUGGGCAUCUUUGGGAAGUGGGGCAAGGGGGGGAUAAAGAGGGGGGUAACACUUUGGGAACAGGUGGUCCCAGGUCGUUUC,0.787
UCCUGUGCUACACAUCGUAUGUACCGAAUCGGGGUUUUUUUGGGGAAAGGGGUUUGGGGAAAGUAUUAUGUUACGCCGUUCGGAUCUGCA,0.563
AAGUCCUGUGCUACACAUCGUAUGUACCGAAUCAAACCCCCAAAUUUAAAUUUAAAAAAGUAUUAUGUUACGCCGUUCGGAUCUGCACUU,-0.0286
CACAGACAACACGCACCCACACAGACACAGAGGGAAGGGGUUGGGAUGGGGACAGGGUGCACAGAAGGGCGGGGUAGGACCCCAGCCCCU,1.83
UCCUGUGCUACACAUCGUAUGUACCGAAUCGGGGAAAAAGGGGAGGGGAAAAAAAGGGGAAAGUAUUAUGUUACGCCGUUCGGAUCUGCA,0.443
CAAGUCCUGUGCUACACAUCGUAUGUACCGAAUCGGUUUGGAAAAAGGAAAAAGGAAAGUAUUAUGUUACGCCGUUCGGAUCUGCACUUC,-0.815
UCCUGUGCUACACAUCGUAUGUACCGAAUCGGGAAAAAGGGAAAAAGGGGAAAAAGGGGAAAGUAUUAUGUUACGCCGUUCGGAUCUGCA,0.143
AGUCCUGUGCUACACAUCGUAUGUACCGAAUCGGGCCCCGGGCCCCGGGGCCCCGGGGAAAGUAUUAUGUUACGCCGUUCGGAUCUGCAC,-2.51
